Experimental data of several laboratories.
Protocols differ between the studies behind these lines. Several values in a cell are separate wells, animals, samples, runs or records.
MAPK8: Mitogen-activated protein kinase 8 (MAPK8, Homo sapiens, UniProt P45983)
MAPK8 C116S: Mitogen-activated protein kinase 8 (MAPK8, Homo sapiens, UniProt P45983, C116S)

SMILES	target	test	test system	conditions	scale	quantity	value
COc1c(Cl)cccc1Nc1c(-c2ccncc2C#C[C@@]2(C)CCCN2C(=O)/C=C/CN(C)C)[nH]c2c1C(=O)NCC2	MAPK8	binding, competition with immobilised ligand		3 µM		remaining binding	0.7%
COc1ccc(NC(=O)Nc2ccc3c(c2)C(=O)N(C(C)CO)CC(C)C(CN(C)Cc2ccc4c(c2)OCO4)O3)cc1 (centres unmarked)	MAPK8	binding, competition with immobilised ligand		10 µM		remaining binding	91%
CN(C)c1ccc(C#CCOC(=O)[C@]2(C)C=C(C(=O)OC(C)(C)C)C(=O)CC2)cc1	MAPK8	D-peptide binding, inhibitor, FP peptide displacement		500 µM	lower is stronger displacement	fraction bound	0.253
C=CC(=O)N1CCc2ccc(-n3c(=O)ccc4cnc5ccc(-c6cnn(C)c6)cc5c43)cc21	MAPK8	KINOMEscan		1 µM	relative to: DMSO control	remaining binding	85%
Cc1cccc(-c2ccc3nc(NC(=O)C4CCCO4)nn3c2)c1 (centres unmarked)	MAPK8	enzyme activity, Dundee kinase panel		10 µM		remaining activity	101%
C=CC(=O)Nc1cccc(-c2cnc3[nH]cc(C(=O)NC(C)(C)C)c3n2)c1	MAPK8	enzyme activity, inhibitor		0.1 µM		inhibition	-1%
N[C@H]1CC[C@H](Nc2nccc(-c3cccnc3Oc3ccc(NC(=O)NC4CC4)c4ccccc34)n2)CC1	MAPK8	kinobead competition pulldown	HEK293/HCT116 lysate mixture	10 µM, 1 h, 4 °C	lower = stronger competition	log2 LFQ intensity	28.1 and 28 and 28.2
Cc1cnc2nc1Nc1cccc(c1)COC/C=C/COCc1cc(ccc1OCCN1CCOCC1)N2	MAPK8			concentration not given, kinase construct JNK1	relative to: control	binding	53%
O=C(Cc1ccc(OCc2ccccc2)cc1)NC1(C(=O)O)CCN(C(=O)c2ccc(-c3cccc(Cl)c3)cc2)CC1	MAPK8	enzyme activity, inhibitor		10 µM		activity vs control	99%
COc1cc(Nc2nc(C)cc(-c3cnn4nc(OC)ccc34)n2)cc(C(F)(F)F)c1	MAPK8	KINOMEscan		1 µM, JNK1	relative to: DMSO	remaining binding	88%
CC(=O)N1c2ccc(-c3ccc(CNC(=O)c4cn5cc(-c6cnc(N)nc6)nc(N6CCOCC6)c5n4)cc3)cc2CC[C@@H]1C	MAPK8	KINOMEscan		10 µM		remaining binding	51%
NC(=O)C[C@H]1CCc2sc3ncnc(O[C@H]4CC[C@H](N5CCOCC5)CC4)c3c21	MAPK8	enzyme activity, inhibitor		10 µM		inhibition	-1%
Cc1cccc(C2(C(=O)Nc3c[nH]nc3-c3ccccc3)CC2)c1	MAPK8	cell-free assay, competition with immobilised ligand		10 µM		remaining binding	23%
Cc1cccc(O[C@H]2CCC[C@@H](C(C)CNCc3ccncc3)C2)c1 (relative stereo)	MAPK8	kinase activity, kinome panel screening		10 µM		inhibition	-8%
C=C1CC2(C(=O)OC)C=C(C(=O)OC(C)(C)C)C(=O)C1C2 (centres unmarked)	MAPK8	D-peptide binding, inhibitor, FP peptide displacement		15.62 µM	lower is stronger displacement	fraction bound	0.799
CN1CCN(Cc2ccc(NC(=O)c3cccc(C#Cc4cnc(N)c5ncccc45)c3)cc2C(F)(F)F)CC1	MAPK8	cell-free assay, competition with immobilised ligand		50 nM		remaining binding	51%
CN(C)c1ccc(-n2cc(COC(=O)[C@]3(C)C=C(C(=O)OC(C)(C)C)C(=O)CC3)nn2)cc1	Mitogen-activated protein kinase 8, with MKK7 (MAPK8, Homo sapiens, UniProt P45983)	protein-protein interaction, NanoBiT, item: MKK7-JNK1 binding	HEK293T	10 µM	relative to: DMSO control	luminescence relative to control	0.409
CN1CC[C@@H](COc2cnc(C#N)cc2-c2ccn3nc(NC(=O)C4CC4)cc3c2)C1	MAPK8	enzyme activity, inhibitor		1 µM		inhibition	1%
COC(=O)C1(C)C=C(C(=O)OC(C)(C)C)C(=O)CC1 (centres unmarked)	MAPK8	D-peptide binding, inhibitor, FP peptide displacement		250 µM	lower is stronger displacement	fraction bound	0.339
C=C1C[C@]2(C(=O)OC)C=C(C(=O)Nc3cccc(C(=O)Nc4ccc(Nc5nccc(-c6cccnc6)n5)c(C)c4)c3)C(=O)[C@H]1C2	MAPK8	SPR two-step binding model		reversible bond formation		ΔΔG bond formation contribution	-3.1 kcal/mol
COc1ccc(C(=O)/C=C/c2ccccc2-c2c[nH]c3ccc(C#N)cc23)c(O)c1	MAPK8	enzyme activity, inhibitor		20 µM		inhibition	-7%
COC(=O)[C@@]1(Cc2ccccc2)C=C(C(=O)OC(C)(C)C)C(=O)CC1	MAPK8	D-peptide binding, inhibitor, FP peptide displacement		7.812 µM	lower is stronger displacement	fraction bound	0.468
COC(=O)[C@@]1(C)C=C(C(=O)NCc2cccc(C(=O)Nc3ccc(Nc4nccc(-c5cccnc5)n4)c(C)c3)c2)C(=O)CC1	MAPK8 C116S	noncovalent binding, SPR		100, 300, 1000 nM, two-step kinetic model		koff	0.0552 s⁻¹
CNC(=O)C1CCN(c2cc(C)c(F)cc2NC(=O)c2ccc(-c3cc(O)ccc3C)c(C)c2)CC1	MAPK8	binding, competition with immobilised ligand		1 µM		remaining binding	76%
COc1cc(-n2cc3cc(F)cc(C(N)=O)c3n2)cc(Cl)c1C1CC(O)(CCO)Cc2ccccc21 (centres unmarked)	MAPK8	enzyme activity, inhibitor		10 µM		inhibition	2.14%
Cc1cc(NC(=O)c2cccc(NC(=O)/C(C#N)=C/C(C)(C)C)c2)ccc1Nc1nccc(-c2cccnc2)n1	MAPK8 C116S	noncovalent binding, SPR		100, 300, 1000 nM, two-step kinetic model		koff	0.0998 s⁻¹
COc1ccc(O)cc1-c1c[nH]c2ncc(-c3cncc(C(=O)N(C)C)c3)cc12	MAPK8	binding, competition with immobilised ligand		0.2 µM		inhibition	7.26%
CC(C)(C)OC(=O)C1=C[C@@](C)(C(=O)OCC#Cc2ccncc2)CCC1=O	MAPK8	D-peptide binding, inhibitor, FP peptide displacement		12.5 µM	lower is stronger displacement	fraction bound	0.702
COC(=O)[C@@]1(C)C=C(C(=O)Nc2cccc(C(=O)Nc3ccc(Nc4nccc(-c5cccnc5)n4)c(C)c3)c2)C(=O)CC1	MAPK8	enzyme activity, inhibitor		0.06097 µM, 6 h, unit not given, with: GSH 10 mM pre-incubation	relative to: vehicle	remaining activity	0.338

Repeated from above:
SMILES	target	test	test system	conditions	scale	quantity	value
CC(=O)N1c2ccc(-c3ccc(CNC(=O)c4cn5cc(-c6cnc(N)nc6)nc(N6CCOCC6)c5n4)cc3)cc2CC[C@@H]1C	MAPK8	KINOMEscan		10 µM		remaining binding	51%
CC(C)(C)OC(=O)C1=C[C@@](C)(C(=O)OCC#Cc2ccncc2)CCC1=O	MAPK8	D-peptide binding, inhibitor, FP peptide displacement		12.5 µM	lower is stronger displacement	fraction bound	0.702
NC(=O)C[C@H]1CCc2sc3ncnc(O[C@H]4CC[C@H](N5CCOCC5)CC4)c3c21	MAPK8	enzyme activity, inhibitor		10 µM		inhibition	-1%
Cc1cnc2nc1Nc1cccc(c1)COC/C=C/COCc1cc(ccc1OCCN1CCOCC1)N2	MAPK8			concentration not given, kinase construct JNK1	relative to: control	binding	53%
